Measured values collected from several papers.
Numbers after ± are the reported error.
Organism: Plasmodium falciparum

N#Cc1cnc(Nc2ccnc3ccc(-c4ccc(S(=O)(=O)N5CCOCC5)cc4)cc23)cn1 — EC50 (parasite growth, SYBR Green; TM91C235): 0.6 µM
O=C1C(O)=C([C@H]2CC[C@H](c3ccc(Cl)cc3)CC2)C(=O)c2ccccc21 — parasite clearance time (parasite reduction ratio; 3D7 ring stage; 10-fold IC50): 120 h
Cc1cnnc(Nc2ccnc3ccc(-c4ccc(S(=O)(=O)N5CCOCC5)cc4)cc23)c1 — EC50 (parasite growth, SYBR Green; D6): 1.2 µM
CC1=C(C)/C(=C/c2[nH]c(Cc3ccc(OC(F)(F)F)cc3)cc2Cc2ccc(OC(F)(F)F)cc2)N=C1c1ccc[nH]1 — IC50 (parasite growth, SYBR Green fluorescence; Dd2 (multidrug-resistant), asexual blood stage; 72 h): 1.48 µM
CCn1nccc1Nc1ccnc2ccc(-c3ccc(S(=O)(=O)N4CCOCC4)cc3)cc12 — EC50 (parasite growth, SYBR Green; D6): 3.4 µM
Cn1nc2c(=O)n(C3CC3)cnc2c1[C@](O)(c1cnc(C(F)(F)F)c(Cl)c1)C(F)(F)F — killing curve slope (parasite reduction ratio; 3D7; concentration not given, linear phase after lag): -0.061
COc1nc2ccc(Br)cc2cc1[C@@H](c1ccccc1)[C@@](O)(CCN(C)C)c1cccc2ccccc12 — IC50 (parasite growth, stage-specific treatment; 12 h, early to late trophozoite stage): 3.22 ± 0.53 µM
COc1cc(OC)c(CCNC(=O)c2cn3cc(-c4cc(OCC(=O)O)ccc4OC)nc3s2)c(OC)c1 — parasite growth (nanoluciferase readout; 3D7 Hyp1-Nluc; 2 µM, 72 h; relative to: DMSO): 48.7%
COCC(=O)N1CCC[C@H](C(=O)NCc2nc(-c3ccccc3)c[nH]2)C1 — EC50 (SYBR Green growth; asexual blood-stage parasites, 3D7; 72 h): > 5 µM
O=C(CCCCCONC(=O)c1nc(-c2cccnc2)cs1)NO — selectivity ratio (3D7; relative to: NFF cells over P. falciparum): 66
CCN(CC)CCCC(C)Nc1ccnc2cc(Cl)ccc12 (stereo not shown) — MIC90 (SYBR Green I fluorescence; Dd2): > 0.2 µM
O=S(=O)(c1ccc(-c2ccc3nccc(Nc4cnccn4)c3c2)cc1)N1CCOCC1 — EC50 (parasite growth, SYBR Green; W2): > 20 µM
Cn1nc2c(=O)n(C3CC3)ncc2c1[C@](N)(c1ccc(C(F)(F)F)c(Cl)c1)C1CC1 — time to kill 99.9% (parasite reduction ratio; 3D7): 75 h
CC(C)(C)NC(=O)[C@@H]1CN(Cc2cnc3occc3c2)CCN1C[C@@H](O)C[C@@H](Cc1ccccc1)C(=O)N[C@H]1c2ccccc2C[C@H]1O — inhibition (erythrocyte invasion; 9.22 µM): 50%
COc1ccc(CNc2nc(-c3ccc(C(=O)O)nc3)nc3sc4c(c23)CCCC4)cc1Cl — parasite growth (LDH readout; 3D7 Hyp1-Nluc; 20 µM, 72 h; relative to: DMSO): 0.483%
N[C@@H](COCC(=O)N1CCC[C@H](C(=O)NCc2nc(-c3ccc(C(F)(F)F)cc3)cs2)C1)c1ccccc1 — EC50 (SYBR Green growth; asexual blood-stage parasites, 3D7; 72 h): 0.0034 ± 0.0024 µM
O=C(Nc1ccc(CNc2ncnc3ccccc23)cc1)c1ccc(Cl)c(F)c1 — inhibition (invasion and early ring development; Hyp1-Nluc; 10 x growth EC50, 4 h): 108%
COCC(=O)N1CCC[C@H](C(=O)NCc2nc(-c3ccc(F)cc3)cs2)C1 — EC50 (SYBR Green growth; asexual blood-stage parasites, 3D7; 72 h): 0.082 ± 0.013 µM
Cc1nnc(-c2ccc3ccn(CC(=O)Nc4ccccc4Cl)c3c2)o1 — RBC lysis fold (luminescence; 3D7 Hyp1-Nluc, infected erythrocytes; concentration not given, 8 h, 10 × EC50; relative to: chloroquine): 1.6 fold
CCOC1=CC(c2ccc[nH]2)=N/C1=C\c1cc(Cc2ccc(OC(F)(F)F)cc2)c(C)[nH]1 — IC50 (parasite growth, SYBR Green fluorescence; Tm90-C2B (atovaquone-resistant), asexual blood stage; 72 h): 0.00902 µM
Cn1cc(-c2cnc3[nH]cc(-c4cn(Cc5cccc(F)c5F)nn4)c3c2)cn1 — parasite growth (LDH readout; 3D7 Hyp1-Nluc; 2 µM, 72 h; relative to: DMSO): 12.4%
Cc1[nH]c(/C=C2\N=C(c3ccc[nH]3)C=C2OCc2ccccc2)cc1Cc1ccc(OC(F)(F)F)cc1 — IC50 (parasite growth, SYBR Green fluorescence; Tm90-C2B (atovaquone-resistant), asexual blood stage; 72 h): 0.0113 µM
COCC(=O)N1CCC[C@H]1C(=O)NCc1nc(-c2ccccc2)cs1 — EC50 (SYBR Green growth; asexual blood-stage parasites, 3D7; 72 h): > 5 µM
COC1=CC(c2ccc[nH]2)=N/C1=C\c1[nH]c(Cc2ccc(OC(F)(F)F)cc2)cc1Cc1ccc(OC(F)(F)F)cc1 — IC50 (parasite growth, SYBR Green fluorescence; Dd2 (multidrug-resistant), asexual blood stage; 72 h): 0.0241 µM
CCn1cc(C)c2c([C@@H](O)c3ccc(C(F)(F)F)nc3)n(C)nc2c1=O — EC50 (parasite growth; 3D7): 0.2 µM
C[C@H]1Cc2c([nH]c3cc(Cl)c(F)cc23)[C@@]2(N1)C(=O)Nc1ccc(Cl)cc12 — fold lysis (luminescence; red blood cells, 3D7 Hyp1-Nluc; 10 × EC50, 8 h; relative to: DMSO): ~5 fold
CC1=C(Cc2cn(CCO)nn2)C(=O)c2ccccc2C1=O — selectivity index (NF54; relative to: L6 CC50 over IC50): 9.5
COC1=CC(c2ccc[nH]2)=N/C1=C\c1[nH]c(C(=O)O)cc1Cc1ccc(Cl)cc1 — IC50 (parasite growth, SYBR Green fluorescence; Dd2 (multidrug-resistant), asexual blood stage; 72 h): > 2.5 µM
CNS(=O)(=O)c1ccccc1Nc1nc(Nc2cc(OC)c(OC)cc2C)ncc1Br — parasite growth (LDH readout; 3D7 Hyp1-Nluc; 2 µM, 72 h; relative to: DMSO): 12.1%
COCC(=O)N1CCC[C@H](C(=O)NCc2nc(-c3ccc(OC(F)(F)F)cc3)cs2)C1 — EC50 (SYBR Green growth; asexual blood-stage parasites, 3D7; 72 h): 0.023 ± 0.0035 µM
CC1=C(Cc2cn(CCOS(=O)(=O)c3ccc(C)cc3)nn2)C(=O)c2ccccc2C1=O — selectivity index (NF54; relative to: L6 CC50 over IC50): 57.7
Cl.N=C(CC(O)c1cc2c(F)cc(F)cc2c2cc(C(F)(F)F)ccc12)Nc1ccc(F)c(F)c1 (stereo not shown) — parasite clearance time (parasite reduction ratio; 3D7 ring stage; 10-fold IC50): ≤ 72 h
CCc1nc(N)nc(N)c1-c1ccc(Cl)cc1 — killing curve slope (parasite reduction ratio; 3D7; concentration not given, linear phase after lag): -0.072
COCC(=O)N1CCC[C@H](C(=O)NCc2nc(-c3ccncc3)cs2)C1 — EC50 (SYBR Green growth; asexual blood-stage parasites, 3D7; 72 h): 0.19 ± 0.04 µM
O=S(=O)(c1ccc(-c2ccc3ncccc3c2)cc1)N1CCOCC1 — EC50 (parasite growth, SYBR Green; W2): > 20 µM
O=C(CC1NCCCC1O)Cn1cnc2cc(Br)c(Cl)cc2c1=O (stereo not shown) — IC50 (parasite growth; conditional knockdown control line; 72 h, together with: 12.5 nM anhydrotetracycline): 0.0005 µM
Cc1cc(Nc2ccnc3ccc(-c4ccc(S(=O)(=O)N5CCOCC5)cc4)cc23)sn1 — EC50 (parasite growth, SYBR Green; W2): 0.72 µM
CCN(CC)CCCC(C)Nc1ccnc2cc(Cl)ccc12 (stereo not shown) — IC50 ratio (growth; 3D7; 96 h, together with: 200 µM IPP; relative to: with IPP over without IPP): 1
O=[N+]([O-])c1ccc(Nc2ccnc3ccc(-c4ccc(S(=O)(=O)N5CCOCC5)cc4)cc23)cn1 — EC50 (parasite growth, SYBR Green; D6): 0.39 µM
N#Cc1ccc(-c2csc(CNC(=O)C3CN(C(=O)COCCF)CC(F)(F)C3)n2)cc1 (racemic) — EC50 (parasite growth, SYBR Green; 3D7, asexual blood stage; 72 h): 0.0085 ± 0.0021 µM
COc1cc(C(=O)N(C)C)ccc1-c1cc2nccc(-c3ccc4ccncc4c3)c2o1 — parasite growth (LDH readout; 3D7 Hyp1-Nluc; 2 µM, 72 h; relative to: DMSO): 30.2%
CCC1=C(CC)/C(=C/c2[nH]c(Cc3ccc(OC(F)(F)F)cc3)cc2Cc2ccc(OC(F)(F)F)cc2)N=C1c1ccc[nH]1 — IC50 (parasite growth, SYBR Green fluorescence; Dd2 (multidrug-resistant), asexual blood stage; 72 h): 1.5 µM
CCN1CCN(Cc2ccc(Nc3nc4ccc(Oc5ccnc(NC(=O)C6CCN(C)CC6)c5)cc4n3C)cc2C(F)(F)F)CC1 — ring-stage survival (Cambodian artemisinin-resistant isolates; 10 × EC50, 6 h): active
CNC(C)(C)COCC(=O)N1CCC[C@H](C(=O)NCc2nc(-c3ccc(C(F)(F)F)cc3)cs2)C1 — EC50 (SYBR Green growth; asexual blood-stage parasites, 3D7; 72 h): 0.018 ± 0.0049 µM
CNS(=O)(=O)c1ccccc1Nc1nc(Nc2ccc(N3CCOCC3)cc2OC)ncc1Br — parasite growth (LDH readout; 3D7 Hyp1-Nluc; 20 µM, 72 h; relative to: DMSO): 1.84%
Cc1cnc(Nc2ccnc3ccc(-c4ccc(S(=O)(=O)N5CCOCC5)cc4)cc23)s1 — EC50 (parasite growth, SYBR Green; TM91C235): 0.09 µM

Repeated from above:
COCC(=O)N1CCC[C@H](C(=O)NCc2nc(-c3ccc(OC(F)(F)F)cc3)cs2)C1 — EC50 (SYBR Green growth; asexual blood-stage parasites, 3D7; 72 h): 0.023 ± 0.0035 µM
CC1=C(Cc2cn(CCOS(=O)(=O)c3ccc(C)cc3)nn2)C(=O)c2ccccc2C1=O — selectivity index (NF54; relative to: L6 CC50 over IC50): 57.7
Cl.N=C(CC(O)c1cc2c(F)cc(F)cc2c2cc(C(F)(F)F)ccc12)Nc1ccc(F)c(F)c1 (stereo not shown) — parasite clearance time (parasite reduction ratio; 3D7 ring stage; 10-fold IC50): ≤ 72 h
